Assay results gathered from unrelated publications.
Compare with care: the assays were run in different laboratories. pEC50, pIC50, pKi: −log10 of the molar value.
CA9: Carbonic anhydrase 9 (CA9, Homo sapiens, UniProt Q16790)
Tumor necrosis factor receptor superfamily member 9/Nectin-4: Tumor necrosis factor receptor superfamily member 9/Nectin-4 (Homo sapiens, UniProt Q07011+Q96NY8)
UniProt Q07011, sequence (whole entry, looked up): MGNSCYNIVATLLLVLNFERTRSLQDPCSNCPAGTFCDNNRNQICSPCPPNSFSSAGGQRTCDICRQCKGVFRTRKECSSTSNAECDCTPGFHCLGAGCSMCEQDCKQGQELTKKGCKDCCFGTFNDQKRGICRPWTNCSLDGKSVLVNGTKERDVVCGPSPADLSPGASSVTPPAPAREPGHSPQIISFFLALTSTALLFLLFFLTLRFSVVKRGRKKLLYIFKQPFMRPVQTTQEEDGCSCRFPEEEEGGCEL
UniProt Q96NY8, sequence (whole entry, looked up): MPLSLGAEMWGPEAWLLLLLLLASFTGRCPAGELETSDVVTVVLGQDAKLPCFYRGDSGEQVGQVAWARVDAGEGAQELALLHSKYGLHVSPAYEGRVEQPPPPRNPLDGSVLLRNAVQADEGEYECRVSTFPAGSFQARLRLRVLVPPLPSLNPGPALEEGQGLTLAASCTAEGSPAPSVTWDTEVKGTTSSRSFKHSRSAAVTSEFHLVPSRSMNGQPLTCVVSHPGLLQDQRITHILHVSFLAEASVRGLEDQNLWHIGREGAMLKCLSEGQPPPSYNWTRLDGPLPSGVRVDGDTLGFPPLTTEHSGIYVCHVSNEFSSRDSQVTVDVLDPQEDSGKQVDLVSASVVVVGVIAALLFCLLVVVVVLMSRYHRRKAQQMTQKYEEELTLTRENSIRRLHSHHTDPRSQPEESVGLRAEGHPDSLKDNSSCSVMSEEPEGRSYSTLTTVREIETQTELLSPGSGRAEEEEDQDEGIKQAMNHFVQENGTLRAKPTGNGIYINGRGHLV
UniProt P42260, sequence (whole entry, looked up): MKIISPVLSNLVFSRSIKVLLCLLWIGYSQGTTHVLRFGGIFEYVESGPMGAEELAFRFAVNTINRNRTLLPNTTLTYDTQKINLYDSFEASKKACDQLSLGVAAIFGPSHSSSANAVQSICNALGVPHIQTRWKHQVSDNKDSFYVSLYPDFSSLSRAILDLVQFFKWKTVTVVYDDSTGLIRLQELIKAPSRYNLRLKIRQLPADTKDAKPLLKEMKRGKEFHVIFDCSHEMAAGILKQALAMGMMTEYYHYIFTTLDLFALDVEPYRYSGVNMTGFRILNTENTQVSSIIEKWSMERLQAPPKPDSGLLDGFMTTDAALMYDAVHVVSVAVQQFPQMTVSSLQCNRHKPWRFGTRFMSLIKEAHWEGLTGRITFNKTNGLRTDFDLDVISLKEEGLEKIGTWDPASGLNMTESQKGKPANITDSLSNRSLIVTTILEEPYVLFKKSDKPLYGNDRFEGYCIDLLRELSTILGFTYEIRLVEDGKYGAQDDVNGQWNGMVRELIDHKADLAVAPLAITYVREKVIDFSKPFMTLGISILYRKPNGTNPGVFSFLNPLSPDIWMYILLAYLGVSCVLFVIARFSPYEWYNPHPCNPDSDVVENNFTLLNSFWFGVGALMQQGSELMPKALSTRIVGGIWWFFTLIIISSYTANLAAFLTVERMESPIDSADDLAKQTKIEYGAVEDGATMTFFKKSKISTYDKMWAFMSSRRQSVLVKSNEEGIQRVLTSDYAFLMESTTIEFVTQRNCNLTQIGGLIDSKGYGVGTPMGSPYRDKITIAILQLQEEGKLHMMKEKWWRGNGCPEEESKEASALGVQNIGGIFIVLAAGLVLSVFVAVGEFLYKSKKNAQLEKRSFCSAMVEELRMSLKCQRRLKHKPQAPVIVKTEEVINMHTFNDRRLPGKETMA
UniProt P22756, sequence (whole entry, unmodified, looked up): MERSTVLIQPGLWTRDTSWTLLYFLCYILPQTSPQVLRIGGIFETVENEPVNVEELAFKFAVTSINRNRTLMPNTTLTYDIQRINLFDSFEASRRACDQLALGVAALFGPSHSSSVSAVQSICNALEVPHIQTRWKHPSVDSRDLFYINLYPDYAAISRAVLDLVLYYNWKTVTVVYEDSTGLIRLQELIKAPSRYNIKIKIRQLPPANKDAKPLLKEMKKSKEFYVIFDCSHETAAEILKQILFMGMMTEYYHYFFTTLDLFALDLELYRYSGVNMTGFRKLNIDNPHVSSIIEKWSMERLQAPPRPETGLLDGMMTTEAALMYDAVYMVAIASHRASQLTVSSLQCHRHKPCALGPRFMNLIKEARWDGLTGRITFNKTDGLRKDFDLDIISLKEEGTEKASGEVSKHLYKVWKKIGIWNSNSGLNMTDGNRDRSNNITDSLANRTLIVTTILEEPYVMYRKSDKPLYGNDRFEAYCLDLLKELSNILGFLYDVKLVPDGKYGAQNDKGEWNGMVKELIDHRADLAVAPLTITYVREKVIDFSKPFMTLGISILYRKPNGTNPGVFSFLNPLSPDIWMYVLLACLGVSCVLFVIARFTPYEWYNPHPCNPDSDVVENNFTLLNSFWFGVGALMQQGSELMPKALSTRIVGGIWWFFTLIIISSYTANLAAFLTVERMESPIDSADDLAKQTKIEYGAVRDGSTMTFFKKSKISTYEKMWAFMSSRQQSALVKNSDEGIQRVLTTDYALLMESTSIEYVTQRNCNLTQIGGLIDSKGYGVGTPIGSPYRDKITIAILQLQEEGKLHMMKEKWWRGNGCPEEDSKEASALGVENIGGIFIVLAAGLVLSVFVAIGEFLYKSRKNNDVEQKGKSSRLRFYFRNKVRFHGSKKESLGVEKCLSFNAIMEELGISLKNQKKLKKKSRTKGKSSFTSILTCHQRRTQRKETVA

With `COCC1OC2CC(CC(N)C(=O)O)(C(=O)O)OC2C(O)C1O` (stereo not drawn) the pKi was 5.62 (Grik2 (Rattus norvegicus, UniProt P42260); binding; HEK293T/17 membranes; together with: [3H]kainate).
`COc1cccc(NC(=O)Nc2ccc3c(c2)C=CCP(=O)(O)O3)c1` gave a pKi of 7.27 (CA9).
With `CCCC[C@@H]1NC(=O)[C@H](Cc2ccc(O)cc2)NC(=O)[C@@H]2CCCN2C(=O)[C@H](CC(N)=O)NC(=O)[C@H](C)NC(=O)[C@H](Cc2ccccc2)NC(=O)[C@@H]2CSCCC(=O)N3CN(CN(C3)C(=O)CCSC[C@H](NC(C)=O)C(=O)N[C@@H](CC(C)(C)C)C(=O)N3CCC[C@H]3C(=O)N[C@@H](CCC(=O)O)C(=O)N[C@H](CCCCNC(=O)CCc3cn(CCOCCOCCOCCOCCOCCC(=O)N[C@H]4CSCCC(=O)N5CN6CN(C5)C(=O)CCSC[C@H](NC(=O)[C@@H](CC(=O)O)NC(=O)[C@H](Cc5cccc7ccccc57)NC(=O)[C@@H]5CCCN5C4=O)C(=O)N[C@@H](CCSC)C(=O)N[C@@H](CCCCNC(=N)N)C(=O)N[C@@H](CC(=O)O)C(=O)N[C@@H](Cc4c[nH]c5ccccc45)C(=O)N[C@@H](CO)C(=O)N[C@@H]([C@@H](C)O)C(=O)N4CCC[C@H]4C(=O)N4C[C@H](O)C[C@H]4C(=O)N[C@@H](Cc4c[nH]c5ccccc45)C(=O)N[C@H](C(N)=O)CSCCC6=O)nn3)C(=O)N3CCC[C@H]3C(=O)N[C@@H](Cc3ccc(O)cc3)C(=O)N2)C(=O)CCSC[C@@H](C(N)=O)NC1=O` the pEC50 was 7.57 (Tumor necrosis factor receptor superfamily member 9/Nectin-4; reporter gene, agonist; HT-1376 coculture with reporter cells).
`CCOc1ccc(NC(=O)c2cnn(-c3ccc(C)c(Cl)c3)c2C2CCNCC2)cc1` has a maximum response of -9.03% (Vero-E6; CellTiter-Glo ATP; 72 h, retest 8-point duplicates; baseline: DMSO 0%, hyamine -100%, more negative, more toxic).
With `NC(CC1(C(=O)O)CC2OC(CO)C(O)C(O)C2O1)C(=O)O` (stereo not drawn) the pKi was 7.23 (Glutamate receptor ionotropic, kainate 1 (Rattus norvegicus, UniProt P22756, del402-416); [3H]kainate displacement; HEK-293T/17 membranes).
`CCCC[C@@H]1NC(=O)[C@H](Cc2ccc(O)cc2)NC(=O)[C@@H]2CCCN2C(=O)[C@H](CC(=O)O)NC(=O)[C@H](C)NC(=O)[C@H](Cc2ccccc2)NC(=O)[C@@H]2CSCCC(=O)N3CN(CN(C3)C(=O)CCSC[C@@H](C(=O)N[C@@H](C)C(N)=O)NC1=O)C(=O)CCSC[C@H](NC(C)=O)C(=O)N[C@@H](CC(C)(C)C)C(=O)N1CCC[C@H]1C(=O)N[C@@H](CCC(=O)O)C(=O)N[C@H](CCCCNC(=O)CCc1cn(CCOCCOCCOCCN(CCOCCOCCOCCn3cc(CCC(=O)NCCCC[C@H]4NC(=O)[C@H](CCC(=O)O)NC(=O)[C@@H]5CCCN5C(=O)[C@H](CC(C)(C)C)NC(=O)[C@@H](NC(C)=O)CSCCC(=O)N5CN6CN(C5)C(=O)CCSC[C@H](NC(=O)[C@H](Cc5ccc(O)cc5)NC(=O)[C@@H]5CCCN5C4=O)C(=O)N[C@@H](Cc4ccccc4)C(=O)N[C@@H](C)C(=O)N[C@@H](CC(=O)O)C(=O)N4CCC[C@H]4C(=O)N[C@@H](Cc4ccc(O)cc4)C(=O)N[C@@H](CCCC)C(=O)N[C@H](C(=O)N[C@@H](C)C(N)=O)CSCCC6=O)nn3)CCOCCOCCOCC(=O)NCCCNC(=O)Cn3cc(CCC(=O)NCCCNC(=O)COCCOCCOCCN(CCOCCOCCOCCn4cc(CCC(=O)NCCC(=O)N[C@H]5CSCCC(=O)N6CN7CN(C6)C(=O)CCSC[C@H](NC(=O)[C@@H](CC(=O)O)NC(=O)[C@H](Cc6cccc8ccccc68)NC(=O)[C@@H]6CCCN6C5=O)C(=O)N[C@@H](CCSC)C(=O)N[C@@H](CCCCNC(=N)N)C(=O)N[C@@H](CC(=O)O)C(=O)N[C@@H](Cc5c[nH]c6ccccc56)C(=O)N[C@@H](CO)C(=O)N[C@@H]([C@@H](C)O)C(=O)N5CCC[C@H]5C(=O)N5C[C@H](O)C[C@H]5C(=O)N[C@@H](Cc5c[nH]c6ccccc56)C(=O)N[C@H](C(N)=O)CSCCC7=O)nn4)CCOCCOCCOCCn4cc(CCC(=O)NCCC(=O)N[C@H]5CSCCC(=O)N6CN7CN(C6)C(=O)CCSC[C@H](NC(=O)[C@@H](CC(=O)O)NC(=O)[C@H](Cc6cccc8ccccc68)NC(=O)[C@@H]6CCCN6C5=O)C(=O)N[C@@H](CCSC)C(=O)N[C@@H](CCCCNC(=N)N)C(=O)N[C@@H](CC(=O)O)C(=O)N[C@@H](Cc5c[nH]c6ccccc56)C(=O)N[C@@H](CO)C(=O)N[C@@H]([C@@H](C)O)C(=O)N5CCC[C@H]5C(=O)N5C[C@H](O)C[C@H]5C(=O)N[C@@H](Cc5c[nH]c6ccccc56)C(=O)N[C@H](C(N)=O)CSCCC7=O)nn4)nn3)nn1)C(=O)N1CCC[C@H]1C(=O)N[C@@H](Cc1ccc(O)cc1)C(=O)N2` gave a pEC50 of 10.30 (Tumor necrosis factor receptor superfamily member 9/Nectin-4; reporter gene, agonist; HT-1376 coculture with reporter cells).
`C[C@H]1CN(c2n[nH]c3nc(N[C@H]4CC[C@H](NS(=O)(=O)CCC(F)(F)F)CC4)ncc23)CCO1` gave a pIC50 of ≤ 4.70 (UBR4 (Homo sapiens, UniProt Q5T4S7); biochemical).
For `O=C(Nc1ccc2c(c1)C=CCP(=O)(O)O2)c1ccccc1`, the pKi was 7.97 (CA9).
With `COc1cc(Nc2ncc(F)c(Nc3ccc4c(n3)NC(=O)C(C)(C)O4)n2)cc(OC)c1OC` the pIC50 was < 5.00 (MMP14 (Homo sapiens, UniProt P50281); enzyme activity, inhibitor).
With `CCCC[C@@H]1NC(=O)[C@H](Cc2ccc(O)cc2)NC(=O)[C@@H]2CCCN2C(=O)[C@H](CC(=O)O)NC(=O)[C@H](C)NC(=O)[C@H](Cc2ccccc2)NC(=O)[C@@H]2CSCCC(=O)N3CN(CN(C3)C(=O)CCSC[C@@H](C(N)=O)NC1=O)C(=O)CCSCCC(=O)N[C@@H](CC(C)(C)C)C(=O)N1CCC[C@H]1C(=O)N[C@@H](CCC(=O)O)C(=O)N[C@H](CCCCNC(=O)CCc1cn(CCOCCOCCOCCN(CCOCCOCCOCCC(=O)N[C@H]3CSCCC(=O)N4CN5CN(C4)C(=O)CCSC[C@H](NC(=O)[C@@H](CC(=O)O)NC(=O)[C@H](Cc4cccc6ccccc46)NC(=O)[C@@H]4CCCN4C3=O)C(=O)N[C@@H](CCSC)C(=O)N[C@@H](CCCCNC(=N)N)C(=O)N[C@@H](CC(=O)O)C(=O)N[C@@H](Cc3c[nH]c4ccccc34)C(=O)N[C@@H](CO)C(=O)N[C@@H]([C@@H](C)O)C(=O)N3CCC[C@H]3C(=O)N3C[C@H](O)C[C@H]3C(=O)N[C@@H](Cc3c[nH]c4ccccc34)C(=O)N[C@H](C(N)=O)CSCCC5=O)CCOCCOCCOCCn3cc(CCC(=O)NCCCC[C@H]4NC(=O)[C@H](CCC(=O)O)NC(=O)[C@@H]5CCCN5C(=O)[C@H](CC(C)(C)C)NC(=O)CCSCCC(=O)N5CN6CN(C5)C(=O)CCSC[C@H](NC(=O)[C@H](Cc5ccc(O)cc5)NC(=O)[C@@H]5CCCN5C4=O)C(=O)N[C@@H](Cc4ccccc4)C(=O)N[C@@H](C)C(=O)N[C@@H](CC(=O)O)C(=O)N4CCC[C@H]4C(=O)N[C@@H](Cc4ccc(O)cc4)C(=O)N[C@@H](CCCC)C(=O)N[C@H](C(N)=O)CSCCC6=O)nn3)nn1)C(=O)N1CCC[C@H]1C(=O)N[C@@H](Cc1ccc(O)cc1)C(=O)N2` the pEC50 was 9.59 (Tumor necrosis factor receptor superfamily member 9/Nectin-4; reporter gene, agonist; HT-1376 coculture with reporter cells).
`O=C(Nc1ccc2c(c1)C=CCP(=O)(O)O2)c1ccc(F)cc1` gave a pKi of 7.56 (CA9).
For `COc1ccc(Nc2nc(Nc3ccc(OC)cc3OC)nc(N3CCOCC3)n2)c(OC)c1`, the maximum response was -18.2% (Vero-E6; CellTiter-Glo ATP; 72 h, retest 8-point duplicates; baseline: DMSO 0%, hyamine -100%, more negative, more toxic).

For quick reference, copied from above:
`CCCC[C@@H]1NC(=O)[C@H](Cc2ccc(O)cc2)NC(=O)[C@@H]2CCCN2C(=O)[C@H](CC(=O)O)NC(=O)[C@H](C)NC(=O)[C@H](Cc2ccccc2)NC(=O)[C@@H]2CSCCC(=O)N3CN(CN(C3)C(=O)CCSC[C@@H](C(=O)N[C@@H](C)C(N)=O)NC1=O)C(=O)CCSC[C@H](NC(C)=O)C(=O)N[C@@H](CC(C)(C)C)C(=O)N1CCC[C@H]1C(=O)N[C@@H](CCC(=O)O)C(=O)N[C@H](CCCCNC(=O)CCc1cn(CCOCCOCCOCCN(CCOCCOCCOCCn3cc(CCC(=O)NCCCC[C@H]4NC(=O)[C@H](CCC(=O)O)NC(=O)[C@@H]5CCCN5C(=O)[C@H](CC(C)(C)C)NC(=O)[C@@H](NC(C)=O)CSCCC(=O)N5CN6CN(C5)C(=O)CCSC[C@H](NC(=O)[C@H](Cc5ccc(O)cc5)NC(=O)[C@@H]5CCCN5C4=O)C(=O)N[C@@H](Cc4ccccc4)C(=O)N[C@@H](C)C(=O)N[C@@H](CC(=O)O)C(=O)N4CCC[C@H]4C(=O)N[C@@H](Cc4ccc(O)cc4)C(=O)N[C@@H](CCCC)C(=O)N[C@H](C(=O)N[C@@H](C)C(N)=O)CSCCC6=O)nn3)CCOCCOCCOCC(=O)NCCCNC(=O)Cn3cc(CCC(=O)NCCCNC(=O)COCCOCCOCCN(CCOCCOCCOCCn4cc(CCC(=O)NCCC(=O)N[C@H]5CSCCC(=O)N6CN7CN(C6)C(=O)CCSC[C@H](NC(=O)[C@@H](CC(=O)O)NC(=O)[C@H](Cc6cccc8ccccc68)NC(=O)[C@@H]6CCCN6C5=O)C(=O)N[C@@H](CCSC)C(=O)N[C@@H](CCCCNC(=N)N)C(=O)N[C@@H](CC(=O)O)C(=O)N[C@@H](Cc5c[nH]c6ccccc56)C(=O)N[C@@H](CO)C(=O)N[C@@H]([C@@H](C)O)C(=O)N5CCC[C@H]5C(=O)N5C[C@H](O)C[C@H]5C(=O)N[C@@H](Cc5c[nH]c6ccccc56)C(=O)N[C@H](C(N)=O)CSCCC7=O)nn4)CCOCCOCCOCCn4cc(CCC(=O)NCCC(=O)N[C@H]5CSCCC(=O)N6CN7CN(C6)C(=O)CCSC[C@H](NC(=O)[C@@H](CC(=O)O)NC(=O)[C@H](Cc6cccc8ccccc68)NC(=O)[C@@H]6CCCN6C5=O)C(=O)N[C@@H](CCSC)C(=O)N[C@@H](CCCCNC(=N)N)C(=O)N[C@@H](CC(=O)O)C(=O)N[C@@H](Cc5c[nH]c6ccccc56)C(=O)N[C@@H](CO)C(=O)N[C@@H]([C@@H](C)O)C(=O)N5CCC[C@H]5C(=O)N5C[C@H](O)C[C@H]5C(=O)N[C@@H](Cc5c[nH]c6ccccc56)C(=O)N[C@H](C(N)=O)CSCCC7=O)nn4)nn3)nn1)C(=O)N1CCC[C@H]1C(=O)N[C@@H](Cc1ccc(O)cc1)C(=O)N2` gave a pEC50 of 10.30 (Tumor necrosis factor receptor superfamily member 9/Nectin-4; reporter gene, agonist; HT-1376 coculture with reporter cells).
